# Assay results pooled from the literature.
# Numbered parts are unrelated; each lists some results of a single study.

# Series 1
# Molecule: IPDRSTKPVVFSPT
# Molecule type: peptide
# Direction: direction not given
tested on,assay,test system,setting,enrichment score
Saccharomyces cerevisiae,"cell growth, competitive growth deep sequencing",,"peptide tiling library, added: cyclin E2-Cln2 fusion",0.734
Saccharomyces cerevisiae,"binding, competitive growth deep sequencing",cyclin E1-Cln2 fusion strain,peptide tiling library,1.3
Saccharomyces cerevisiae,"binding, yeast competitive growth sequencing","cyclin A1-Cln2 strain, peptide tiling library",,0.68
human cyclin A2,competitive growth deep sequencing,"Saccharomyces cerevisiae, cyclin A2-Cln2 fusion strain",peptide tiling library,0.725
,peptide binding,yeast competitive growth,added: B1-Cln2 chimera,0.686
Cln2 (Saccharomyces cerevisiae),"peptide binding, competitive growth sequencing","Saccharomyces cerevisiae, unfused Cln2 strain",peptide tiling library,1.26
Saccharomyces cerevisiae,"mating pheromone growth arrest, pooled competitive growth deep sequencing",no Cln2 overexpression,peptide tiling library,0.0082

# Series 2
# Target: Centromere-binding protein 1, full length, N-terminal tag (CBF1, Saccharomyces cerevisiae, UniProt P17106, residues 1-351)
# UniProt P17106, sequence (whole entry, looked up): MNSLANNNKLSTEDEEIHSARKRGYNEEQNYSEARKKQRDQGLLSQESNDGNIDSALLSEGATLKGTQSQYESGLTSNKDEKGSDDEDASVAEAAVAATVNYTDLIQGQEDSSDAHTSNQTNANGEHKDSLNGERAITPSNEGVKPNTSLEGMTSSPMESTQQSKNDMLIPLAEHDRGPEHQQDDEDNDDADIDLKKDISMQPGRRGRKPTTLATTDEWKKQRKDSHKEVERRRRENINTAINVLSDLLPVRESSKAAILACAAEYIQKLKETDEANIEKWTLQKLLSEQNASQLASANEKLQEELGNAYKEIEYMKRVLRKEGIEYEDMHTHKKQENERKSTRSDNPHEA
# Technique: protein-binding microarray
# Molecule type: double-stranded DNA, one strand shown
# Matrix: in vitro
# Tested at: 0.8 µM
# Setting: whole 60-bp probe, no competitor
# Direction: higher = stronger binding
# Constant ends, left off below: … GTCTTGATTCGCTTGACGCTGCTG
Strand,fluorescence intensity [a.u.]
TGTACGAAGCTATGCGGTCACATTATAGTAGTTAGG,691
GAACAATCACGCACGCACGCAGTCGGTGCACGCTAG,724
CCTAACTACTATAACGTCAGAATATAGCTTCGTACA,500
GAAGAGAAAAAGTTGCGTGCGTCACTGCCCACGTAG,542
GAAGTTGTCGAAAAAAACATCAGGCGTATACCATAG,551
CTATTCTATAGGCATCACCTACTGCATCACCTATTC,539
CTATAAAAAATACATCAGATAGTGTTTCGATGTTTC,506
TGTACGAAGCTATATCACGATCTTATAGTAGTTAGG,610
GAAAGAAAAAGTGGTCAGGTGCAAGTATACATCTAG,2230
TGTACGAAGCTATCAAACGTGTATATAGTAGTTAGG,564
GAACTTAGTATACTTCATCAGATTTATGATAAATAG,533
CTAATATTAACTTTACACATGCATTGCCTATCATTC,607
CTATAATAGATAGTTGTGGTGATCATATTATAATTC,515
TGTACGAAGCTATTTTATCACATTATAGTAGTTAGG,599
GAACAAAAATTTTATCACGCTCGAGGTTAGAAGTAG,663
CTAAATTAATAGTGACATGTGTTGCTATGGTAATTC,727

# Series 3
# Target: Interferon regulatory factor 3, full length, phosphomimetic (IRF3, Homo sapiens, UniProt Q14653, residues 1-427, S386D/S396D/S398D/S402D/T404D/S405D)
# Technique: protein-binding microarray
# Molecule type: double-stranded DNA, one strand shown
# Matrix: in vitro
# Tested at: 2540 nM top
# Setting: 60-bp whole probe
# Added: salmon DNA 0.4 mg/ml
# Baseline: random background probes
# Direction: higher = stronger binding
# Constant ends, left off below: GCCTAGCAC … GTCTTGATTCGCTTGACGCTGCTG
# Target sequence (chain): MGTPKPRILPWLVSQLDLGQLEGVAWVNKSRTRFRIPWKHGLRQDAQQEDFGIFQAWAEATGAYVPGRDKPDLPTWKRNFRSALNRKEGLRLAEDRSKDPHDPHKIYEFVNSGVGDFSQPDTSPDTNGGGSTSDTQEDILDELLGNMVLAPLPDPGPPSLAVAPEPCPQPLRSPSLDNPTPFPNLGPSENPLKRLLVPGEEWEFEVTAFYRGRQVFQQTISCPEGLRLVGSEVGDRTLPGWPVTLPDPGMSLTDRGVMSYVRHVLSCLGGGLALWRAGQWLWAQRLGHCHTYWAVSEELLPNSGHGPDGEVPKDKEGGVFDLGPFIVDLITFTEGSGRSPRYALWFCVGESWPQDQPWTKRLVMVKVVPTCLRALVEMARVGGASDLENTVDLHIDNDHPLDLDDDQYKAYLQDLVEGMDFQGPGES
Strand,fitted relative affinity [z-score]
GACGATATCGGGACTGCAGACGTGCTA,0.125
TTAGGACTGGATACTGGGTTAGTGCTA,-0.361
CTGGGGGCAGTTTCATGGCCGTGCTAG,-0.173
TACGGTATCCTTCTCCTGACGTGCTAG,6.77
TCAAGTTTCTATTTTCTACTGTGCTAG,4.63
TTAGGTTTCGACACTGGGGTAGTGCTA,2.54
TTAGATTTCGGGTTTCCATTAGTGCTA,3.32
TCATGTTTACATATGTTACTGTGCTAG,0.504
GACGATATCGGGTATCGAGGCGTGCTA,0.137
GACCGTTTCGGACTGGGGACGTGCTAG,4.03
TTAGGAGTGGACACTGGGTTAGTGCTA,-0.868
TTAGCTATCGGTTTCGGTTAGTGCTAG,6.05
GACGATATCCGTATCGAGACGTGCTAG,1.93
TTAGGTTTCGACAGTGGGTTAGTGCTA,1.54
ATGAGCCTCTGTTTTGAGCAGTGCTAG,-0.551
TCTCTGCTCCTTCTGACATCGTGCTAG,0.925
GACGGTATCGTTCTCCTGACGTGCTAG,4.32
TTAGGTATCGGGTATCTGTTAGTGCTA,1.24
ATTTTTTTATCAATCATTTTGTGCTAG,1.21
GACGGACTGGGTTTCGGGACGTGCTAG,1.16
TCATGTTTGGTCCTGATACTGTGCTAG,0.314
TCAACCATCATCCTCACACTGTGCTAG,0.0317
GACGGTATCGGACTGGCGACGTGCTAG,1.52
GCGGTTGGATCACAAGGTCAGTGCTAG,0.125
GATGGTTTCCTACTGCTGACGTGCTAG,5.09

# Series 4
# Target: RNA binding protein fox-1 homolog 2, RRM domain, GST-SBP tag (RBFOX2, Homo sapiens, UniProt O43251-10, residues 100-194)
# Technique: RNA Bind-n-Seq
# Molecule type: RNA
# Matrix: in vitro
# Tested at: 365 nM
# Setting: natural RNA segment, single round, ends assumed
# Baseline: no-protein control
# Direction: higher = stronger binding
# Constant ends, left off below: GGGAGUUCUACAGUCCGACGAUC … UGGAAUUCUCGGGUGCCAA
# Residues (chain): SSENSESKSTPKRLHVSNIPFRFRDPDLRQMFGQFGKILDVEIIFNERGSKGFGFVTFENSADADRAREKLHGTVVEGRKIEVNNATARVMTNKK
Strand,RBNS enrichment (R)
AAAAGUCAUGCCACAGGAAGGGUCUAUUGCAGAAUUUCAAGUUCUGUUUAUAGUAAAAAGGAAGAGCGUUUCCUAAUCCCUCCUUUACCAUAUCCUACACAGAAAAAUAC,0.291
AAGUAUCUGUAAAUACAUGUUUAAAGAUGGAUUUUGUUUAAAAAAUCUAAAGGAACAAGUGUGUCGUGUGUCAAGCUGAUGAGGACUGUCAGACUGUGGCUUAGCUCAGU,0.503
AGUCUUGUUACUCAAUGACUUUUGUCAUGGCAGUUUGUUCUACUUUAGACUGUAAAUUAUGCAUUAUAAAGAGUUCAUUUAAAGAAAACUACUUGGUACAAUAAUUAUUG,0.356
GCAGGAGUCACAGUUGAGAGCUGGGCUUCCUGCCUCUUACAUACAAUAAAGAGAUUGCUAACACUGGGUAGCUGACCUUUAAUAGAACUACAGCCCUCCCCGUGCCUCUG,0.312
AUCAGGUCAGAUAUCUGAUGAAAAAUACGAACUAAUGUUAAGAGCAAGUAGUUUCAACAUACUCCAGGAACUGAGAAACAAAACAAAGCAAUUGUGGGUUUUGAGCUCCA,0.369
CAUCGGGCAGACUUUCUGCCACUGGCUUUUCAAACACUGUCAAUUGGGUUAUUUUUUUACACAGCUGGUAAAGAGGAUUAUUCUGAAGAGUCAAAUGGACAGUAGAAGCA,5.35
CACCCCUUUAUCGCAUUGCUGUCCUUGGGUAGAAUAUAAAAUAAAGGGACUUUUAUUUCUUAUUGGAGACCUUUGUCAUUCUUUUUGACUACCCAGCAUCUGAGGGAAUU,0.486
ACUAGUCAGGCAUUAUGCCUGAUGCAUACGCCUCCCGUGCACCCCUAUCUAGCCUUCAGAUGUCCUCCACUGCAGGUCACCCCAGGAGAUAGCAUCAAUAAUAUAGUCUC,2.32
UCUGUUAUGUUCCUAUGGAAACACUGUACUGUACAUACUAUGCUUAAAACAUUUAAAACACAAUGUUUUAAAUGUGGACAGAACUGUGUAAACCACAUAAUUUCUGUACA,0.354
UUUGUACAGAAUGCGCUAUAAAUUAUACCUUUAAGAAUGUGGGGCCUUUUUUAUGAUUUUGUAAGUUCCCAUAAGUUGUGUGCACGAGGUUCUGAGAGUGCCCGCAGGCU,4.77
AGAACUUUGUUUCAGCGUGACUCUCCCACCCUGCCCCAAGUUGAAUGUUCCCUUCACAUUGAAUCAAAUACAAAUCAGCACAGAUACUGUUUCCAGUUUUUAAAAAUGUA,0.81
CAUCUGUGUCUGACCAAAUCAGGGGACUUCCCCACCUGUGGUGGGAGGCACAGCUUAGAUGUUUUGUACACCUGGUCUUUUCUAGAAAUCCCUGCUUGGAGCUGCAGAAG,0.276
